# Measured values gathered from unrelated publications.
# Parts stem from different laboratories: compare values within a part only. Substitutions count along the parent as printed.

# Study 1 — target: CCNE2, cyclin fold, Cln2 fusion (human); method: yeast growth competition, sequencing; matrix: yeast; notes: weak parent motif; baseline: not given; direction: higher = stronger binding
# Starting sequence: MICAL3 docking peptide (human); LQLRRQLSFSEDS; partner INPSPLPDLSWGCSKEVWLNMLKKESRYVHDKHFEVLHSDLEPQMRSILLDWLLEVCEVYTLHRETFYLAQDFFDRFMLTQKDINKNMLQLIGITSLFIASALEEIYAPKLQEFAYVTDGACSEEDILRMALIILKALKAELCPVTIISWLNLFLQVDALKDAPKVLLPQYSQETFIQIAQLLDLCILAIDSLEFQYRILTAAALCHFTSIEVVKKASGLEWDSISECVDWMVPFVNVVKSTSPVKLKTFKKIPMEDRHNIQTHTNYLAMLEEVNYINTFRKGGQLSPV
Change,normalised enrichment score
L7D,-0.124
F9E,0.308
Q2D,0.0757
Q6F,-0.114
R5C,0.223
L7K,0.0973
R4I,0.211
L3K,0.0398
L3E,0.0784
S10I,0.406
L7W,0.294
R5N,0.596
E11H,0.163
L7C,-0.0889
D12G,0.356
E11Y,0.623
R5M,0.319
L3W,0.69
Q2M,0.116
S8W,0.328
S10L,0.719
R5E,0.044
S8F,0.917
L7I,0.337
R4Q,-0.00322

# Study 2 — method: RNA Bind-n-Seq; molecule type: RNA; matrix: in vitro; tested at: not given; baseline: input RNA pool; direction: higher = stronger binding
# Target: RING finger protein unkempt homolog, zinc fingers 1-6, GST-SBP tag (UNK, Homo sapiens, UniProt Q9C0B0, residues 30-357)
# Notes: RNA with constant flanks, human and mouse sites, ends assumed
# All sequences stand within: GGGAGUUCUACAGUCCGACGAUC … CAACAGAGGAUUGAGCAUCA
# Residues (chain): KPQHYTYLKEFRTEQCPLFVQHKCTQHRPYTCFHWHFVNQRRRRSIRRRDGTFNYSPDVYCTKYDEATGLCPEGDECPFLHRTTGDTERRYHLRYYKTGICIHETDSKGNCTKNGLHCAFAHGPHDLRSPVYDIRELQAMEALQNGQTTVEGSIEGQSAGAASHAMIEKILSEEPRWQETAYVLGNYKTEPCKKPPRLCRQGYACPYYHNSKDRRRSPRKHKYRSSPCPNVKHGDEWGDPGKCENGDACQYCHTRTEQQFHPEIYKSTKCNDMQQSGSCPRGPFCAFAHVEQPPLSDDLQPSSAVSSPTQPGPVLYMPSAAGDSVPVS
Oligonucleotide,bound/input enrichment [ratio]
AUGAAAUUUUGGCCUAAAACAUGCAGUCAAAAAGAGGUCAUGUUCCUCGGGGAGCUGGAAGAAAUCUUGGAUGUGAUUGAACCGUCACAAUUUGUUAAAAUCCAAGAACCUUUGUUUAAA,0.134
GCUUGCCAGAAGAUGAUCUUAGAGUUGUUUUCUAAGGUGCCAUCCUUGGUAGGAAGCUUUAUUAGAAGCCAAAAUAAAGAAGACUAUGCUGGCCUAAAAGAAGAAUUUCGUAAAGAAUUU,0.417
CUGAAGACCCAUAUCAGGCUGGGUGACGAUGCUCAGGAAACAAAGGUUUUACUGGAAAAACACAGAAAAUUUGUCGAUGUUGCCCAGAGUACUUACGACUAUGGCAGACAGCUGCUGCAG,0.31
GAUAACUGUCGAGAAGUGAUUAUUACACCAAAUUCUGCAUGGGGUGGAGAAGGCAGCCUAGGAUGUGGCAUUGGAUAUGGUUAUUUGCAUCGAAUACCUACACGCCCAUUUGAGGAAGGA,0.393
GUGACCACAGAUGCAACCCUUUCUAGGCUCUACACUGUAAAUAAUUCUAUAAAUACUUUGAUUUUAAAAAAGAACUAUUUUUGAUUUGGGGAGGCAGGCUUUUAUAUACAUGAGCCUUUA,0.561
GCAAUGGCUGCGGCUGCAGCAGCUUCUCACCUGAACCUGGAUGCCCUCCGGGAAGUGCUAGAAUGUCCCAUCUGCAUGGAGUCCUUCACUGAAGAGCAGCUGCGACCCAAGCUGCUGCAC,0.0743
CAAAAGAUCCUGGCUAACUGUUCUUCUCCCUACCAUGUAGAUCUGUUGGGUAUAGCAGACCUAGCGCACUUACUCCUGUUCAAGGAGCACCUCCAUGUCUUCUGGGAUGGACUCCUCUGG,0.104
UCUCUUGCUACUUGCCAGUUAUCUGAGCCAUUGUUGUGGUUUAUCUUGAGAGUGUUGGAUACUAGUGAUGCAUUGAAAGCUUUCCAUGAUAUGGGUGGAGUUCAGCUCAUAUGCAAUAAU,0.305
UUCCAUCCAGAGUUUGCUAAUCCAGAUUUUACACAACCUAUCUCAGAAGUUGUAGAUGAAGUCAUUCAGAAUUGCCCCAUUGAUGUCCGGCGUCCUCUCUACAAGAACAUUGUCCUCUCU,0.334
UCGGAUGCAGCAAUUGAGGCCAUGAACGGGCAGUACCUGUGUAACCGUCCUAUCACUGUGUCUUAUGCCUUCAAGAAGGACUCUAAGGGUGAACGCCAUGGCUCAGCAGCUGAAAGACUC,0.112
AACUGGGGCUUGGACUCAUAUAGUCAUAAAGAAGAUGCUUCAGCAUUUCCAGGAAAACGAGCCUUAAUUUCAUUUCUUUCCUGGUUUGAUUAUUGUGAUCAGCUCAUUAAGGAAGCCCAA,0.512

# Study 3 — method: DHFR PCA, deep sequencing; matrix: yeast; with: (+)-ABA 0.39 µM; baseline: wild-type fitted maximum; direction: higher = stronger binding
# Target: ABI1, truncated, D143A, DHFR fusion (Arabidopsis thaliana)
# Notes: methotrexate growth selection, single substitutions
# Starting sequence: PYL1, truncated, DHFR fusion (Arabidopsis thaliana); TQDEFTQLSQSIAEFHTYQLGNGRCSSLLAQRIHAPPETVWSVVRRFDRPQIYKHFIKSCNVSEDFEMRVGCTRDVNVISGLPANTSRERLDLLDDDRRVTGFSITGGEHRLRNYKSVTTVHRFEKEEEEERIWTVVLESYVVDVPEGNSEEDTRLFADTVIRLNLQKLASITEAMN
Change,relative binding score [%]
E151N,-13
G21M,30.9
E4W,34.5
F103D,-4.23
S171G,14
V161S,19.3
N85T,75.9
L82R,5.01
I162T,18.2
E38W,-4.82
Y141T,-5.87
T73E,51.2
T135R,-5.08
S150N,28.3
S59E,46.9
T160A,9.6
V145S,-14.4
E131F,23.6
S104P,1.46
R123A,66.5
S140G,4.64
L156A,36.1
G148M,-19.4

# Study 4 — target: CREBZF, bZIP domain (human); method: DHFR protein complementation; matrix: yeast; baseline: wild-type JUN-FOS pair; direction: higher = stronger binding
# Notes: single substitutions, most at no-binding floor
# Starting sequence: JUN, bZIP domain (human); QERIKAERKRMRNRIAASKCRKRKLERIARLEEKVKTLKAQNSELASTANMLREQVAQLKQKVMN; partner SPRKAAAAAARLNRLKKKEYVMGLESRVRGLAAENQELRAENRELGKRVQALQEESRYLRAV
Change,binding fitness [natural log]
E54H,-1.43
L45W,-1.42
N42A,-1.48
L38S,-1.47
S43A,-1.33
S43K,-1.5
K39Q,-1.51
I28T,-1.41
V56P,-1.51
A57E,-1.03
M51T,-1.19
E32F,-1.43
Q55E,-1.48
E44T,-1.36
L52R,-1.53
E54A,-1.44
L38N,-1.56
K34A,-1.37
L59G,-1.09
N42V,-1.36
R30A,-1.36
I28F,-1.54
V56D,-1.49
V35K,-1.47
M51S,-1.43

# Study 5 — target: UBE2E1 UBC core domain (UniProt P51965); method: yeast two-hybrid; matrix: yeast; notes: mostly zero background; baseline: not given; direction: higher = stronger interaction
# Chain of UniProt P51965 (whole entry, looked up): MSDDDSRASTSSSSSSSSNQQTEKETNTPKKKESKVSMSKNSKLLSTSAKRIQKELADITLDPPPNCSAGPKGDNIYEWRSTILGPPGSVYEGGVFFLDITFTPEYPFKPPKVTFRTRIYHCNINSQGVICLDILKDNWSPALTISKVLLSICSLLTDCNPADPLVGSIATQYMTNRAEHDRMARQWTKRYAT
# B1: DEF8 RING domain (UniProt Q6ZN54); chain AGRLGCSLTEIHTLFAKHIKLDCERCQAKGFVCELCREGDVLFPFDSHTSVCADCSAVFHRDCYYDNSTTCPKCARLSLRK
# B2: MEX3B RING domain (UniProt Q6ZN04); chain SGLRRKGSRDCSVCFESEVIAALVPCGHNLFCMECANRICEKSEPECPVCHTAVTQAIRIF
# B3: TRIM31 RING domain (UniProt Q9BZY9); chain FVNKLQEEVICPICLDILQKPVTIDCGHNFCLKCITQIGETSCGFFKCPLCKTSVRKNAIRF
# B4: TRIM60 RING domain (UniProt Q495X7); chain ALVNLQEESSCPICLEYLKDPVTINCGHNFCRSCLSVSWKDLDDTFPCPVCRFCFPYKSFRR
# B5: RNF31 RING domain (UniProt Q96EP0); chain AFLRRLLAQECAVCGWALPHNRMQALTSCECTICPDCFRQHFTIALKEKHITDMVCPACGRPDLTDDTQLL
# B6: TRIM22 RING domain (UniProt Q8IYM9); chain VKVDIEKEVTCPICLELLTEPLSLDCGHSFCQACITAKIKESVIISRGESSCPVCQTRFQPGNLRP
# B7: RNF152 RING domain (UniProt Q8N8N0); chain ETLSQDSLLECQICFNYYSPRRRPKLLDCKHTCCSVCLQQMRTSQKDVRCPWCRGVTKLPPGFS
# B8: ANAPC11 RING domain (UniProt Q9NYG5); chain GICRMAFNGCCPDCKVPGDDCPLVWGQCSHCFHMHCILKWLHAQQVQQHCPMCRQEWKFKE
# B9: TRIM37 RING domain (UniProt O94972); chain SVESIAEVFRCFICMEKLRDARLCPHCSKLCCFSCIRRWLTEQRAQCPHCRAPLQLRELVN
# B10: TRIM26 RING domain (UniProt Q12899); chain PLRSLEEEVTCSICLDYLRDPVTIDCGHVFCRSCTTDVRPISGSRPVCPLCKKPFKKENIRP
# B11: RNF122 RING domain (UniProt Q9H9V4); chain AKKLQLYGQTCAVCLEDFKGKDELGVLPCQHAFHRKCLVKWLEVRCVCPMCNKPIASPSEAT
# B12: RNF166 RING domain (UniProt Q96A37); chain GDSGLEAQYTCPICLEVYHRPVAIGSCGHTFCGECLQPCLQVPSPLCPLCRLPFDPKKVDK
# B13: RLIM RING domain (UniProt Q9NVW2); chain SFGENDALKTCSVCITEYTEGNKLRKLPCSHEYHVHCIDRWLSENSTCPICRRAVLASGNRE
# B14: MKRN2 RING domain (UniProt Q9H000); chain FAFQASQDKVCSICMEVILEKASASERRFGILSNCNHTYCLSCIRQWRCAKQFENPIIKSCPECRVISEFVIPSV
Sequence,lacZ reporter activity
B1 (DEF8 RING domain),0
B2 (MEX3B RING domain),0
B3 (TRIM31 RING domain),0
FVKTVEDKYKCEKCHLVLCSPKQTECGHRFCESCMAALLSSSSPKCTACQESIVKDKVF (TRAF3 RING domain (UniProt Q13114)),0
B4 (TRIM60 RING domain),0
B5 (RNF31 RING domain),0
KPDKMEETLTCIICQDLLHDCVSLQPCMHTFCAACYSGWMERSSLCPTCRCPVERICKNH (CHFR RING domain (UniProt Q96EP1)),0
B6 (TRIM22 RING domain),0
B7 (RNF152 RING domain),2360
B8 (ANAPC11 RING domain),0
B9 (TRIM37 RING domain),0
YCEMGSTFQLCKICAENDKDVKIEPCGHLMCTSCLTAWQESDGQGCPFCRCEIKGTEPII (CBLB RING domain (UniProt Q13191)),0
B10 (TRIM26 RING domain),0
B11 (RNF122 RING domain),0
RYRQMEERITCPICIDSHIRLVFQCGHGACAPCGSALSACPICRQPIRDRIQIF (MIB2 RING domain (UniProt Q96AX9)),0
B12 (RNF166 RING domain),0
B13 (RLIM RING domain),0
B14 (MKRN2 RING domain),0

# Repeated from above (study 3):
Change,relative binding score [%]
E4W,34.5
F103D,-4.23
S171G,14
V161S,19.3
N85T,75.9
L82R,5.01
I162T,18.2
E38W,-4.82
Y141T,-5.87
